# Experimental data from different studies.
# A part holds a random share of what one study measured.

# Set 1 — method: RNA Bind-n-Seq; molecule type: RNA; sample: in vitro; tested at: 365 nM; reference: no-protein control; reading: higher = stronger binding
# Target: RNA binding protein fox-1 homolog 2, RRM domain, GST-SBP tag (RBFOX2, Homo sapiens, UniProt O43251-10, residues 100-194)
# Notes: natural RNA segment, single round, ends assumed
# Shared flanks, not repeated: GGGAGUUCUACAGUCCGACGAUC … UGGAAUUCUCGGGUGCCAA
# Construct (chain): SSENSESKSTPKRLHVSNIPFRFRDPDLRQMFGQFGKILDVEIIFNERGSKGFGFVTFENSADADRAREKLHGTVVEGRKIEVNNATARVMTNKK
Strand,RBNS enrichment (R)
UUGUGCAGGAAACCAGCCAUUUAAUUGUUCUAGAGUUUUAGCAUUUAAAAAUCGUAUGAAAGUCUACAUCAGCUGAAUUGUCCUAGCUUGAUAAGCACUUGGAGGGGGAC,0.988
UUUGCUUUAUUGAUGCACGGAUGCUUUUGAACAGUAGAGCGAAAUGCUAGACAUGGAGAAUCUGCUCUGUUUGUCCUUUAUACAUUUCUGUAGUUAACAGAACACUGUAA,1.07
UGCGCAUUGAUAUGUGGAGGCUGUUGAUUUCAACCUUUUUUAAACUUGUGUUUUUUAGUAAAAUUGCUUAUUUUUUUCCCAAAGGUGGAAUUUAAUGUUUUGUAGUGAUG,0.798
CACACCAGAGAGGCCUUAUAGCGGCCCCGGAGCUAAACGCACCAGAGAAAAACCAGUGCUUCCUACUGCACAUGACUGACUCAGCUCCGCCACACGUAGCACCACUGUAA,0.558
UUCCGUAAAAUUGACUUUGUACUCUGAAAACGUCAAUUUAUAUUGAACUUGGAGGAGUUUGGCAAAGUCUGAAUAGGUCAACCUGCAGGCGUAACUAUUUUUGACCUAGU,0.369
CUCCCCCACAAGCCUUUAAUUGAGAGCCGCUCUUUAUAAGUGUUCGCUUGUGCAAAAGGGAAUAGUGCCGUGGAAGUGUGUGUCCAUGGCAGUUUGGACAGGGGUGACUG,0.491
AACUGAAAAGCAGGUGAAAGGAGGAAUAUUUCAGUGUGUUUUUACAUCUGAAUCCAAGGGAUCCAAGUGGCCCAGCAGAAACGGAAUUCUUGUUAAAAUGACUGAUUCUC,0.28
CACACACAGACACACAUACACCCAUGAUGUGAGCAAACACACACACGUGCGCCUUCAUAGCCCAGCCAAGGGCAUGCAGGCAGGGUGUGCUGCCUGAGAUGGCACCUCCC,0.476
UAGCUUAGAAUACUGCAAAGGAUAAGCUAAUUGAAUGCCUUGAAAGUAUUAUCCACUGGUCAGAUGGUCAACUUUUUUCAGUAUUAUUUAUAGUUGGCACUUGAUUGCAG,3.2
AUAUUUAUUGCAAAGCAAGCCUGGUCAUACUUGCUGCUUGAGAAGCUGAGGCAGGAGGAUCAUGAAUUCAAAGCCAGCCUGGGAUACAUAGCAAGUUUCAGGGCAGUGUG,0.487
ACAAGAGAUCCUUUUCUCUUUCCAAACAGCUUUGCACAAUCUAGAAAUUCAGUGGGUUUUUUUUUUUUUUUCAAAUAAAAAACUAGUUAGAUAACUUUACAAAUUAGGUC,0.761
GGGUAAUGAUCCAGACCGAGGCACCUCCAUAUGGCAUCAAACAAAUCUCUUCACUGUUUCUUUUUUAGGACUCCCUUUGCAAGGAGCAACUGUAAUAUUGUGGGACUAAC,0.314

# Set 2 — method: RNA Bind-n-Seq; molecule type: RNA; sample: in vitro; tested at: not given; reference: input RNA pool; reading: higher = stronger binding
# Target: RING finger protein unkempt homolog, zinc fingers 1-6, GST-SBP tag (UNK, Homo sapiens, UniProt Q9C0B0, residues 30-357)
# Sequence of UniProt Q9C0B0 (30-357, looked up): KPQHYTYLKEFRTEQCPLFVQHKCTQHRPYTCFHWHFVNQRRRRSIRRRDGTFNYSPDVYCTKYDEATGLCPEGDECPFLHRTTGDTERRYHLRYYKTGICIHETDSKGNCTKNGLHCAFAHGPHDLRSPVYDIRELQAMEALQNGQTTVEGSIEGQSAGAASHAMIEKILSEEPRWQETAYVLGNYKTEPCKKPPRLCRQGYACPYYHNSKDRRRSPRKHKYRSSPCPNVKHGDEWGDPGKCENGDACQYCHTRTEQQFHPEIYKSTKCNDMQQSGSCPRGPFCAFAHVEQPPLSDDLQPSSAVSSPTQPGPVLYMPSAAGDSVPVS
# Notes: RNA with constant flanks, human and mouse sites, ends assumed
# Shared flanks, not repeated: GGGAGUUCUACAGUCCGACGAUC … CAACAGAGGAUUGAGCAUCA
Strand,bound/input enrichment [ratio]
CUGCGAAGACAGCUGGCAGAACUCAACAAAAAUCCAGUGGAAGGCUUUUCAGCAGGUUUAAUAGACGACAAUGAUCUCUAUCGUUGGGAAGUCCUUAUUAUUGGUCCUCCAGAUACACUU,0.106
GCUGCCACUGCCGCAGCAGCCGAGCCCAAGUCUGAGGGCGUUGUGGCUAUGACUUUCAAGAUUUUUCUCCUUUUUGCAGGGCUUAUGGUUAAAGUUCCUGUGGGGUUAUAUUUUUCCUGC,0.167
UGCUGUAUGUUGGAGUAUCCAAAAAGAUUGUAUACAAAAACUAACAAACAGAAAAGUGAACUUUGUAAAUGUAUAGAAACAGUUCAUCAAGAUUCAUGUAAUGCCUGCUUUCCUCAGCAG,0.156
UGAAACAAACAAGAGGUGGACUCAAGUGUGAGAACAUGUUCUUAGGUUCCACAUAUCAUAUCGCUCUCUGGAAUCAGGACAGAAAAAAGUCAUGACAUCUUGAGUUCCUUAAAUAUAGCG,0.34
CGCAACGUGGCUGUGGAGCGUAAGAACCUGAUCACCGUGUGCAGGUUCUCUGUGAAAACGCUGCUGGAGAAGUACACAGCGGAGCCCAUCGAUGACUCAUCGGAGGAGUUUGUCAAUUUU,0.0788
UACAGCAACAUUUCUCCAGUCCAGAUCCACUGGUACAACACUUCAAACCCUCUACCUUAUGAGCAUAUGAAGCCAAAUUUUCUCAACCCAGCAAAAGAACCUACCUCAGUUUCAGACAGU,0.279
GAGUCAUAUUUGAUGUUUGUGAAGUCCCUGUGUUUGGGGCCAACACUGAUCUACUCGGCUAAGUUUGUGCUUGUCUUCCCGCUCAUGUACCACUCACUGAAUGGGAUCCGACACUUGCUA,0.157
GUGAAAAAUACAGAGCUGGCUGUCUUCCAUGAUGAAACAGAAAUACAAAACCAAACUGACUUACUGAGUCUUAGUGGAAAAACACUUUGUGUGACUGCAGGAUCGGCUCCCUCUCUGAUC,0.136
AAACUGGCUGUUCAGAUUGGCAAAGCAGGUCUGUUGAUGUCUGCCAUCACAGUUAUCAUUCUAGUAUUAUAUUUUGUCAUUGACACCUUCUGGGUUCAGAAAAGACCAUGGCUUGCUGAG,13.6
GUGGCCUUUCAGUUCACGGUCACUCCGGACGGGAUUGACCUGCGGCUGAGCCAUGAAGCUCUUAGACAAAUCUAUCUCUCUGGACUUCAUUCCUGGAAAAAGAAGUUCAUCAGAUUCAAG,0.25
GGCCAGGCUUUUGAGCUGAUCUUGAAGCCACCAUCUCCUAUCUCAGAAGCCCCACGAACUUUAGCUUCUCCAAAGAAGAAAGACCUGUCCCUGGAGGAGAUCCAGAAGAAACUGGAGGCU,0.121

# Set 3 — method: RNA Bind-n-Seq; molecule type: RNA; sample: in vitro; tested at: 200 nM; notes: whole 134-nt RNA, ends assumed; with: 150 mM LiCl; reference: input library; reading: higher = stronger binding; library: 7-deaza-guanosine replaces G
# Target: Ras GTPase-activating protein-binding protein 1, full length (G3BP1, Homo sapiens, UniProt Q13283)
# Sequence of UniProt Q13283 (whole entry, looked up): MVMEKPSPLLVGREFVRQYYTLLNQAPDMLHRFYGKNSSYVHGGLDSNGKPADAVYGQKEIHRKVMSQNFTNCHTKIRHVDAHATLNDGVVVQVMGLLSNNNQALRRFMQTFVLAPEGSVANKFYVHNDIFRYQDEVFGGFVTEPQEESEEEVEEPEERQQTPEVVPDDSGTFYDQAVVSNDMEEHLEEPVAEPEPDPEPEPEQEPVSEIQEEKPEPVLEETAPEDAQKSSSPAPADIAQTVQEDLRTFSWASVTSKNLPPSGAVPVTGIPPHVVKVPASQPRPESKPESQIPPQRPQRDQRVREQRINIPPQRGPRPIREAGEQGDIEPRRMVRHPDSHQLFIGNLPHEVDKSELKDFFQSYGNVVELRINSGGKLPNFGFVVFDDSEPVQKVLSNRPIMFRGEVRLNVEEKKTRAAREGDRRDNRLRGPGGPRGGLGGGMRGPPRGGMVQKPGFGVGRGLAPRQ
# Shared flanks, not repeated: GGGAGUUCUACAGUCCGACGAUC … UGGAAUUCUCGGGUGUCAAGG
Strand,log2 enrichment
AAGACAUUUGUUGUAUUUAUGGUUGUAACUGUACAUGCUUAUCAGGAUGAGACUGAAAGAAGGUAGGGCAAAAAUGGUUGAAUCUAUUUU,-1.17
UGGGGACAAGCUGACAGCAGCCAUGGCGAGCGGCAGUGGAGACAGCGUCACCCGUCGGAGCGUGGCAUCACAGUUUUUCACUCAAGAGGA,-0.279
UCCUCAAGUCCUGUGCUACACAUCGUAUGUACCGAAUCGGCCGGCCGGCCGGAAAGUAUUAUGUUACGCCGUUCGGAUCUGCACUUCCAG,1.52
AAGUCCUGUGCUACACAUCGUAUGUACCGAAUCGGGCCCCGGCCCCGGGGCCCCGGGAAAGUAUUAUGUUACGCCGUUCGGAUCUGCACU,-1.84
GUCCUGUGCUACACAUCGUAUGUACCGAAUCGGGAAAAAGGAAAAAGGGGAAAAAGGGGAAAGUAUUAUGUUACGCCGUUCGGAUCUGCA,0.0692
CCUGUGCUACACAUCGUAUGUACCGAAUCGGGGUUUUUUUGGGGUUUGGGGUUUUUGGGGAAAGUAUUAUGUUACGCCGUUCGGAUCUGC,0.386
GUCCUGUGCUACACAUCGUAUGUACCGAAUCGGCCCCCGGGCCCCCGGGGCCCCCGGGAAAGUAUUAUGUUACGCCGUUCGGAUCUGCAC,-1.85
UAACUUUAGAGGAGGAUCUGAUGGAUAUGACAGUGGACGUGGAUUUGGGGAUGGCUAUAAUGGGUAUGGAGGAGGACCUGGAGGUGGCAA,0.164
CUCAAGUCCUGUGCUACACAUCGUAUGUACCGAAUCGGCCCGGCCCGGGCCCGGAAAGUAUUAUGUUACGCCGUUCGGAUCUGCACUUCC,-0.442
ACCUUCACGGCAUGGUGCAACUCCCACCUGCGGAAGGCAGGCACACAGAUCGAGAACAUUGAUGAGGACUUCCGAGACGGGCUCAAGCUC,0.873
CCUGUGCUACACAUCGUAUGUACCGAAUCGGGAAAAAGGGUUUUUUUGGGUUUUUUUGGGAAAGUAUUAUGUUACGCCGUUCGGAUCUGC,-2.09

# Set 4 — method: universal PBM; molecule type: double-stranded DNA, one strand shown; sample: in vitro; tested at: not given; reading: higher = stronger binding
# Target: Sal-like protein 4, full length isoform B (SALL4, Homo sapiens, UniProt Q9UJQ4-2, residues 1-616)
# Notes: 8-mer, flanks averaged, mean of replicates
# Residues (chain): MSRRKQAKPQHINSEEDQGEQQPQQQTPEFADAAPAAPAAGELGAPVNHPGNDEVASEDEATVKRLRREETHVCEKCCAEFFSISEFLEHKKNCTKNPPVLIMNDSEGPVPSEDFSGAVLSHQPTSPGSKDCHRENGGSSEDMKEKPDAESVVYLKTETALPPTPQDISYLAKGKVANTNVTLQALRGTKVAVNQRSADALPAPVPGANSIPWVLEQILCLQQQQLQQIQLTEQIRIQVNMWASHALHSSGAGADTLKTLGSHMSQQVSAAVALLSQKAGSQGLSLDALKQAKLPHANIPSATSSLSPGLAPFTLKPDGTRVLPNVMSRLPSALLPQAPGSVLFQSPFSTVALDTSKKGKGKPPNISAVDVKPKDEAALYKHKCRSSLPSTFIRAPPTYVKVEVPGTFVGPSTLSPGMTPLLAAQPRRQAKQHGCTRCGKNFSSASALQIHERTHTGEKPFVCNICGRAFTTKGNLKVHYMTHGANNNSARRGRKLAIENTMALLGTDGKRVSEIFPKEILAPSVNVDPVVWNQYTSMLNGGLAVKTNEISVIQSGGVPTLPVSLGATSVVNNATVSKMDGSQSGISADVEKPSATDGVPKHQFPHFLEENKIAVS
Strand,E-score
AATTTACT,0.355
CAGGGTCA,-0.154
GGGAGGGA,-0.112
TACCTTCA,0.13
CGGTGACC,-0.255
ATTCGGAC,0.0795
TCCCTTAA,0.116
ACGTGCAG,-0.0624
CCATTATC,0.0997
CCCAGACA,-0.11
TCCGCAGA,-0.134
CATCGTGG,-0.282
ACCAGCAT,-0.0938
TAGTTCGA,0.0931
AATCCATG,0.0792
CCCTACCC,-0.134
CGCTTACC,-0.0628

# Repeated from above (set 1):
Strand,RBNS enrichment (R)
AACUGAAAAGCAGGUGAAAGGAGGAAUAUUUCAGUGUGUUUUUACAUCUGAAUCCAAGGGAUCCAAGUGGCCCAGCAGAAACGGAAUUCUUGUUAAAAUGACUGAUUCUC,0.28
UAGCUUAGAAUACUGCAAAGGAUAAGCUAAUUGAAUGCCUUGAAAGUAUUAUCCACUGGUCAGAUGGUCAACUUUUUUCAGUAUUAUUUAUAGUUGGCACUUGAUUGCAG,3.2
CACACACAGACACACAUACACCCAUGAUGUGAGCAAACACACACACGUGCGCCUUCAUAGCCCAGCCAAGGGCAUGCAGGCAGGGUGUGCUGCCUGAGAUGGCACCUCCC,0.476
UGCGCAUUGAUAUGUGGAGGCUGUUGAUUUCAACCUUUUUUAAACUUGUGUUUUUUAGUAAAAUUGCUUAUUUUUUUCCCAAAGGUGGAAUUUAAUGUUUUGUAGUGAUG,0.798
UUCCGUAAAAUUGACUUUGUACUCUGAAAACGUCAAUUUAUAUUGAACUUGGAGGAGUUUGGCAAAGUCUGAAUAGGUCAACCUGCAGGCGUAACUAUUUUUGACCUAGU,0.369
AUAUUUAUUGCAAAGCAAGCCUGGUCAUACUUGCUGCUUGAGAAGCUGAGGCAGGAGGAUCAUGAAUUCAAAGCCAGCCUGGGAUACAUAGCAAGUUUCAGGGCAGUGUG,0.487
